# Measured values gathered from unrelated publications.
# Every numbered part comes from another study and shows a few of its results, in no order. Substitutions count along the parent as printed.

# Block 1
# Target: Sal-like protein 4, full length isoform B (SALL4, Homo sapiens, UniProt Q9UJQ4-2, residues 1-616)
# Method: universal PBM
# Form: double-stranded DNA, one strand shown
# Matrix: in vitro
# Concentration: not given
# Notes: 8-mer, flanks averaged, mean of replicates
# Reading: higher = stronger binding
Strand,E-score
CAATCTGG,-0.061
TCTCCAAA,0.163
AAGAAGCA,-0.00241
TCTCAACA,0.112
TGGCCCAA,-0.24
AGCTCCCT,-0.191
CTGGCTAC,-0.0797
ATTATCAA,0.312
CGTGTGGC,-0.0831
AACGGGTA,0.0813
CCCCGTTC,-0.197
AATTGTGC,0.165
CGACTCGA,-0.159
GATTGACC,-0.0811
AACTTAGA,0.0727
ACCCACCT,-0.244

# Block 2
# Target: RNA binding protein fox-1 homolog 2, RRM domain, GST-SBP tag (RBFOX2, Homo sapiens, UniProt O43251-10, residues 100-194)
# Method: RNA Bind-n-Seq
# Form: RNA
# Matrix: in vitro
# Concentration: 365 nM
# Notes: natural RNA segment, single round, ends assumed
# Reference: no-protein control
# Reading: higher = stronger binding
# Shared flanks, not repeated: GGGAGUUCUACAGUCCGACGAUC … UGGAAUUCUCGGGUGCCAA
# Construct (chain): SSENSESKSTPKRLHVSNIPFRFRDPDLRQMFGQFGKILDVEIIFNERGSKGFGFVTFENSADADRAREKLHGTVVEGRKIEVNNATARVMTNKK
Strand,RBNS enrichment (R)
CGGGACCCAUAGCACACCCCUUAGCGCUUGCCUAGGUUGCUGAAAACAGGGAGGCACCUGGUAUCUCGAGUGCCUGCAGUUGCAAGUAUGUUUACACCUGGUGUCCAAUU,0.276
UUUAUUAUGACACUAGAUACAGUAAAUUUUUAGAAAAAAAUACCAUUUACAGUAUUAUUGUGAACCAUUUAACCCUUUUGAUCCAAGGCCCCGGACCAAGGGGAUACUGU,0.312
UGUGUACUUCUAAACAGAGAAGGCUUAUAAAAGUAAAUGCAUUAAGGCCAAGUGCAGUGGCUCACACCGGUAAUCCCAGCACUUUGGGAGGCCGAGGUGGGAGGAUUGCU,1.5
AUGCUAAUAUGUAAAGUUCAUGCCAUCCAGGCAUUUAAGAGCGAUCCUCAUCCCUUCAGCAAUAUGUAUUUGAGUUCACACUAUUUCUGUUUUACAGCAGUUUUGAAAAA,0.399
CCCUGCUUUCUCUUUUCUUUGACUUAACAUUGGUUUCUGAAAGAAUCUUUGCUACCUAGAACCUGCAGUCUGUUUUAUGGCAACACUGGAUAAUGGCUUUUUGAAAUUGA,0.596
CUCACACACAGGGGCAGCCAGUGCUUCUGGGGCCCUGGUUGGGGUUCACCCGAGAUGCCCAGGGGUACCGCCUCCAGCCUCAGGCCUGGAGCAUUCCAUCAAAGUUGGAA,0.404
GCCUUGCAGACCCUGGUUCCCGCCCUGUGGAUCUCUCAGCACUACUGAUGUGUCCUGGGUUGGCAGGUGCCUGGCAGUCCAGACAUCACAGACCCCAGAACAAGGUGAAA,0.97
UCAGCUCCCAGGAUGUGUGGGGAGCUGUCCCUGACUCUGCAGGCCUGAGCGAGUGUGUGAGCAUGCGGGGACAUGGGUGUGUAUGGCACACAUAGGUGCGUGUGUGUCUU,9.47
ACCAAACAUUCAAUUUGGAAUAAGAAUGAUUUUUUAAAGUUCUGUCUGAAACAUUAUCAAACUUGUGUAAAUAUUUUGAUUUAUGUCUUAGAUCCUGUUAACCGUGUCCU,0.346
UUUUCUCUGCUUCCUCAGCCCAGGAAGAACUUGUGUUGCAUUGGCUGUGAGAGCGGGAUGGGGACGACAUGAAUCACAGCUUUGCUGUGAGCUUUCUCUCGUGCAGUUUC,0.364
GAUUUUUAGUUAAAAAUCAUGUAGUCUAAUAUGCUGCAGUUAUUUUUUUAUAUUUUUCAAUGCAUUUAAUUAUCUUUUUUAUAAUUCUUUGUACUAACUCAGCAUGUAAC,2.83
GUUUAGCCAGCACACCCAAUGGUUUCACUAACUAGCCCAGUUGACCUUUUUGAAGUUUGAGCCUUGAGCACCUUCAACAAAAUUGAGCACUCUGAUUAGGAUAUCCACUU,0.667

# Block 3
# Target: CCNB1, cyclin fold, Cln2 fusion (human)
# Method: yeast growth competition, sequencing
# Matrix: yeast
# Notes: strong parent motif
# Reference: not given
# Reading: higher = stronger binding
# Starting sequence: PKN2 docking peptide (human); VSAVRKLDFSDTM; partner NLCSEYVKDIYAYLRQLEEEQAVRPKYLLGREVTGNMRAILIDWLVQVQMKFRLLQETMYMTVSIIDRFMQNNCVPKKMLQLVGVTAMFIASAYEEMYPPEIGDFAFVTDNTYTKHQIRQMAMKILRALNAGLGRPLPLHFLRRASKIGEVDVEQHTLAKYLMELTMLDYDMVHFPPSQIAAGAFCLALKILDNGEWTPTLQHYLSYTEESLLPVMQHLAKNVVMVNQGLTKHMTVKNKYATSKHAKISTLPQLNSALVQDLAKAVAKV
Substitution,normalised enrichment score
VSAERKLDFSDTM [V4E],0.374
VSAVRKLDFIDTM [S10I],2.35
VSAKRKLDFSDTM [V4K],1.29
VGAVRKLDFSDTM [S2G],4.02
VSAVRDLDFSDTM [K6D],0.168
VSCVRKLDFSDTM [A3C],4.72
VSAVRKLDFADTM [S10A],3.52
VSAVIKLDFSDTM [R5I],1.68
VSAVRKLDFWDTM [S10W],2.23
VSAVRKLDFSDWM [T12W],3.72
VSAQRKLDFSDTM [V4Q],1.38
VSAVRKLCFSDTM [D8C],2.21
VSYVRKLDFSDTM [A3Y],2.5
VSAVRKLDMSDTM [F9M],0.595
VSAVRKLDFFDTM [S10F],2.48
VSAVRKLLFSDTM [D8L],1.07
VSAVDKLDFSDTM [R5D],-0.0583
VSAVRILDFSDTM [K6I],1.62
VSAVRKLIFSDTM [D8I],2.48

# Block 4
# Target: ABI1, truncated, D143A, DHFR fusion (Arabidopsis thaliana)
# Method: DHFR PCA, deep sequencing
# Matrix: yeast
# Notes: methotrexate growth selection, single substitutions
# Together with: (+)-ABA 710 µM
# Reference: wild-type fitted maximum
# Reading: higher = stronger binding
# Starting sequence: PYL1, truncated, DHFR fusion (Arabidopsis thaliana); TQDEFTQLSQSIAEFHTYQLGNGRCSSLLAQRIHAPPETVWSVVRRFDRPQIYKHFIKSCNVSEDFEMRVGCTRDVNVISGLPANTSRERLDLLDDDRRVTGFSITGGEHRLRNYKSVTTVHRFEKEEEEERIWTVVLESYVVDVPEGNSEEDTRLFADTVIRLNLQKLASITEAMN
Substitution,relative binding score [%]
R99F,110
S27H,101
A175N,95.5
D144C,84.6
D75Q,93.4
N149R,50.1
V78R,10.5
I133V,111
V100I,112
G102S,109
C72N,94.9
L156I,102
T160R,92.6

# Block 5
# Target: RING finger protein unkempt homolog, zinc fingers 1-6, GST-SBP tag (UNK, Homo sapiens, UniProt Q9C0B0, residues 30-357)
# Sequence of UniProt Q9C0B0 (30-357, looked up): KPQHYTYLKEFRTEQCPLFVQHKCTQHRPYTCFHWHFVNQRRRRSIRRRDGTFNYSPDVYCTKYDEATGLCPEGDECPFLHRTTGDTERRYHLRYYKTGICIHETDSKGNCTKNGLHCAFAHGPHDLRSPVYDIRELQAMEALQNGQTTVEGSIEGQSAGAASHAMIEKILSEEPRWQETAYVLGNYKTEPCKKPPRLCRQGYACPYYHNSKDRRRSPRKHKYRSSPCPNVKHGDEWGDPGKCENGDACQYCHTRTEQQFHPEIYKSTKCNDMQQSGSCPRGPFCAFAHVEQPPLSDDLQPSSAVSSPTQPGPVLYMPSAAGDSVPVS
# Method: RNA Bind-n-Seq
# Form: RNA
# Matrix: in vitro
# Concentration: not given
# Notes: RNA with constant flanks, ends assumed
# Reference: input RNA pool
# Reading: higher = stronger binding
# Shared flanks, not repeated: GGGAGUUCUACAGUCCGACGAUC … CAACAGAGGAUUGAGCAUCA
Strand,bound/input enrichment
GGCUGUGUAGGGGAGGAAGGGGUGCAUGCAUGUCCCCCACCCUCCACAGUCUUCCUUGCCUUCCGAGUGACCCUGCAGAGUCACUCAGCCAAAUCUGUCUGCUGCUCCCUCUCCUCAGCC,0.167 ratio
ACUGACCAAUGCACCAAAUGAAUGCUAAAAUGCACUUUAGGUUUGUUUUUGCACUUCUGACCGUAUCUUUCAACCACGAUGUACUGGGCAAGAAUUUGAAAUACAGGAUUUAUGAGGAAC,0.266 ratio
UUAUGUCUUCAGCUUCGGCAGGACAUAGUUGCAGGACGUCUGCCCUGUUCCUUUGCAACCUCCGCAUUAUUAGGUUCUUACACCAUCCAGUCUGAACUGGGAGACUACGACCCAGAACUC,0.343 ratio
UUGGCAGAAGGUGUCAUUUUAAGACGAGUAGGCGAAGCAAGGACUCAACACGGAGGCCGUCACGUUUCCCGGAAAUCCGAACACUUGAGUGUCAGACCACAGACUGCGUUGGAAGAAAAC,0.148 ratio
AUGUGGUAUCGUUUACGGUUAUUAAAACCCCAGCCAAAUAUUAUUCCUACAGUAAAGAAAACCGUUCUGCUUGCAGGAUGGGCAUUGUUCUUAUUCCUUGCAUAUAAAGUUUCCAAAACA,0.158 ratio
GUCGACGUGUGCAGAAAUCCUGCUAGUCUGGUCCUUGUUUCCAUCUGGGUACCAGCUCCCUUCCGCCUUGCAGACGGUGGUGCGAGAGGCCAGCGGCCAGAAGAGACAGCUUGCUUCAAU,0.207 ratio
AUAAAGGCUAUGUUGAGUGGUCCAGGUCAGUUUGCUGAGAAUGAAACCAACGAGGUCAAUUUCCGAGAGAUCCCCUCACAUGUGCUAUCAAAAGUGUGCAUGUAUUUUACCUACAAGGUC,0.103 ratio

# Block 6
# Target: Histone acetyltransferase KAT6A, winged helix 1, GST fusion (KAT6A, Homo sapiens, UniProt Q92794, residues 1-85)
# Method: protein binding microarray
# Form: double-stranded DNA, one strand shown
# Matrix: in vitro
# Concentration: not given
# Notes: 8-mer, flanks averaged, mean of 2 arrays, mostly near background
# Reference: not given
# Reading: higher = stronger binding
# Residues (chain): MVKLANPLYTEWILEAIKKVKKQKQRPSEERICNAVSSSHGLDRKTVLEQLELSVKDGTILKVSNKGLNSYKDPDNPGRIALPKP
Strand,E-score
ACATACAT,-0.186
GTGTTTGA,-0.175
ATGGCATA,-0.246
ATAAGTGG,-0.177
AAACTGCG,0.19
ACGATGGA,0.0416
CAGACGCC,0.0434
CACTCGTC,0.0427
AGGTGGTG,-0.235
GTCGGATA,0.115
ATCCCTTG,-0.15
GGATAGAC,-0.00485
CGGGTCTC,0.277
ACGGGCGA,0.356
CCCGGAAG,0.175
CAACAACC,-0.19

# Block 7
# Target: TAR DNA-binding protein 43, full length, His tag (TARDBP, Homo sapiens, UniProt Q13148, residues 1-414)
# Method: RNA Bind-n-Seq
# Form: RNA
# Matrix: in vitro
# Concentration: 20 nM
# Notes: 6-mer, flanks averaged, single round
# Together with: 150 mM LiCl
# Reference: input library
# Reading: higher = stronger binding
Strand,6-mer enrichment (R)
GCCCGC,1
UGGUUA,1.09
CGGGCC,0.983
AGCUAA,0.844
AAAAGG,0.893
UUGUAC,0.936
UCCCUG,1.02
GUGAAA,0.994
GUAGAC,1
AGUUAC,0.871
AGGCAC,0.911
UGUGGC,1.27
